Results of several laboratories.
Protocols differ between the studies behind these lines.
ABL1 Q252H phosphorylated: Tyrosine-protein kinase ABL1, phosphorylated (ABL1, Homo sapiens, UniProt P00519, Q252H)

SMILES	target	read-out	method	measured	concentration	relative to	remaining binding
C=CC(=O)N1CCCC(n2c(=O)c3ncccc3n(Cc3ccc(Oc4ccccc4)cc3)c2=O)C1 (centres unmarked)	Tyrosine-protein kinase ABL1, non-phosphorylated (ABL1, Homo sapiens, UniProt P00519, F317L)	binding	competition with immobilised ligand		1 µM		74%
COc1cc(Nc2nccc(-c3cnn4nc(OC)ccc34)n2)cc(C(F)(F)F)c1	Tyrosine-protein kinase ABL1, phosphorylated (ABL1, Homo sapiens, UniProt P00519)	binding	competition with immobilised ligand		1 µM		95%
Cc1cnc2nc1Nc1cccc(c1)COC/C=C/COCc1cc(ccc1OCCN1CCOCC1)N2	Tyrosine-protein kinase ABL1 (ABL1, Homo sapiens, UniProt P00519, Q252H)	binding			0.1 µM		50%
CC(C)=CC1OC(C)(C)C2C=C3C(=O)C(Cl)=CC(O)C3C3C(O)C4OC4C(=O)C132 (centres unmarked)	ABL1 Q252H phosphorylated	cell-free assay	competition with immobilised ligand		10 µM		92%
CCN1CCN(Cc2ccc(C(=O)Nc3ccc(C)c(NCc4cnc5[nH]ccc5c4OC)c3)cc2C(F)(F)F)CC1	Tyrosine-protein kinase ABL1, non-phosphorylated (ABL1, Homo sapiens, UniProt P00519)	binding	competition with immobilised ligand		1 µM		2.8%
Nc1ncc2c(n1)-c1c([nH]c3ccc(C4=CCOCC4)cc13)CCC2	Tyrosine-protein kinase ABL1, phosphorylated (ABL1, Homo sapiens, UniProt P00519, T315I)	binding	competition with immobilised ligand		1 µM		100%
C=CC(=O)N1CCc2ccc(-n3c(=O)ccc4cnc5ccc(-c6cnn(C)c6)cc5c43)cc21	Tyrosine-protein kinase ABL1, phosphorylated (ABL1, Homo sapiens, UniProt P00519, Y253F)		KINOMEscan	(Y253F)-phosphorylated	1 µM	control	100%
CNC(=O)C1CCN(c2cc(C)c(F)cc2NC(=O)c2ccc(-c3cc(O)ccc3C)c(C)c2)CC1	ABL1 Q252H phosphorylated	binding	competition with immobilised ligand		1 µM		30%

Repeated from above:
SMILES	target	read-out	method	measured	concentration	relative to	remaining binding
CCN1CCN(Cc2ccc(C(=O)Nc3ccc(C)c(NCc4cnc5[nH]ccc5c4OC)c3)cc2C(F)(F)F)CC1	Tyrosine-protein kinase ABL1, non-phosphorylated (ABL1, Homo sapiens, UniProt P00519)	binding	competition with immobilised ligand		1 µM		2.8%
